Published values collected from several papers.
Protocols differ between the studies behind these lines. ± marks the error that the study gave.

SMILES	assay	test system	conditions	how to read	measurement	result
O=C([O-])CN1CCN(CC(=O)[O-])CCN(CC(=O)NC[C@H]2CC[C@H](C(=O)N[C@H](Cc3cnc4ccccc4c3)C(=O)NCCCC[C@H](NC(=O)N[C@@H](CCC(=O)O)C(=O)O)C(=O)O)CC2)CCN(CC(=O)[O-])CC1.[64Cu+2]	gamma counting	human, biopsy cores, pathology negative	–	–	mean radioactivity	33 ± 15 CPM
O=C(Nc1ccc(C(F)(F)F)cc1Cl)c1cc(Cl)ccc1O	immunohistochemistry	mice relapsed VCaP xenograft	dose not given	–	tumour Ki67, AR-V7 and HSP70	inhibited
CC(C)(O)c1ncc([S@](N)(=O)=NC(=O)Nc2c3c(cc4c2CCC4)CCC3)s1	IL-1β release	healthy humans, whole blood ex vivo	oral, 25 mg twice daily, 24 h, steady state, maintained, crystalline tablets	–	inhibition	~90%
N[C@@H](CC(=O)O)C(=O)N1CCC[C@H]1C(=O)NCC(=O)NCC(=O)O	diketopiperazine formation, Arrhenius plot, ESI-MS	1-propanol	70, 80, 90 °C, 0.5% acetic acid	–	ΔG‡ at 298.15 K	22.2 ± 0.239 kcal/mol
COc1cc(O)c(Cl)cc1/C=C/C(=O)c1ccc(C(F)(F)F)cc1	immunofluorescence, refers to: occludin and ZO-1	mouse DSS colitis, intestine	dose not given	–	protein level	increased
CC(=O)[O-].O.[Cu+2].[O-]c1ccc(Br)cc1C=NCCN1CCOCC1	hydroxyl radical scavenging	–	240 µM	–	inhibition	56.1%
CC(C)(O)c1ccc(N2Cc3c(ccnc3-c3ccc(F)cc3OCC(F)(F)F)C2=O)cc1	–	mouse, cerebral cortex	300 mg/kg, 6 h	baseline: vehicle	glucosylceramide level	40 ± 3%
C=C(c1ncc(C(=O)O)cn1)c1cc2c(cc1C)C(C)(C)CCC2(C)C	RNA sequencing, refers to: Cyp26a1 mRNA	rat, brain	dose not given, 24 h, single dose	baseline: vehicle	log2 fold change	-0.088
CCCCCCCCCCCCCCCC(=O)N[C@@H](CCCCN)C(=O)N[C@@H](CCCCN)C(=O)N[C@@H](CO)C(=O)N[C@@H](CCCNC(=N)N)C(=O)N[C@@H](C)C(=O)N[C@@H](CC(C)C)C(=O)N[C@@H](Cc1ccccc1)C(N)=O	–	guinea pig	intravenous infusion, above 0.05 mg/kg, 10 min infusion, maximum 60 min	–	mean occlusion time	40 min
N=C(N)NCCC[C@H](N)C(=O)N1CCC[C@H]1C(=O)NCC(=O)NCC(=O)O	diketopiperazine formation, Arrhenius plot, ESI-MS	1-propanol	70, 80, 90 °C, 0.5% acetic acid	–	ΔG‡ at 298.15 K	23.2 ± 1.91 kcal/mol
CNc1oc(-c2cccc3ccccc23)nc1C#N	–	NOD mice, prediabetic	ip, 24 mg/kg daily, 2 weeks	–	beta-cell mass	no effect
COc1ccc2c(c1)c(CC(=O)OCOC(C)=O)c(C)n2C(=O)c1ccc(Cl)cc1	hot plate test	BALB/c mice	50 mg/kg, 0 min	–	latency of nociceptive response	9.02 ± 0.44 s
CCc1nnc(NS(=O)(=O)c2ccc(NC(=S)NC(=O)/C=C/c3ccc(F)cc3)cc2)s1	refers to: Ki-67	NXS2 allograft, A/J mice, tumour	intraperitoneal, 20 mg/kg daily, 3 weeks	baseline: vehicle	tumour cell proliferation	decreased
C[C@@H](O)[C@@H]1NC(=O)[C@H](CCCCN)NC(=O)[C@@H](Cc2ccc(NC(N)=O)cc2)NC(=O)[C@H](Cc2ccc(NC(=O)[C@@H]3CC(=O)NC(=O)N3)cc2)NC(=O)[C@H](NC(=O)[C@H](Cc2ccc(Cl)cc2)NC(=O)CN2CCN(CC(=O)O)CCN(CC(=O)O)CCN(CC(=O)O)CC2)CSSC[C@@H](C(=O)N[C@H](Cc2ccc(O)cc2)C(N)=O)NC1=O [gallium-68 labelled]	whole-body PET/CT	neuroendocrine tumour patients	60 min post-injection	–	highest lesion SUVmax	≤ 94
Cn1cncn1.[Ru+2].c1cc(-c2ccc3ccccc3n2)nc(-c2ccc3ccccc3n2)c1.c1ccc2cc3nc4c5cccnc5c5ncccc5c4nc3cc2c1	–	M2 macrophages, BALB/c mouse bone marrow-derived	–	baseline: dark EC50 over light EC50	phototherapeutic index	10
CC[C@H](C)[C@H](NC(=O)[C@H](CCCCN)NC(=O)[C@H](CC(N)=O)NC(=O)CNC(=O)[C@@H](NC(=O)[C@H](C)NC(=O)[C@H](CCCNC(=N)N)NC(=O)[C@H](CC(C)C)NC(=O)[C@H](CCCCN)NC(=O)[C@H](CCCCN)NC(=O)[C@H](CCCCN)NC(=O)[C@H](C)NC(=O)[C@H](CCCCN)NC(=O)[C@@H]1CSSC[C@H](NC(=O)[C@H](CCCNC(=N)N)NC(=O)CN)C(=O)N[C@@H](CC(N)=O)C(=O)N[C@@H](CC(C)C)C(=O)N[C@@H](CC(C)C)C(=O)N1)C(C)C)C(=O)N[C@@H](CCCCN)C(=O)N[C@@H](CCC(=O)O)C(=O)N[C@H](C(=O)N[C@@H](CCCCN)C(=O)N[C@@H](CC(N)=O)C(=O)N[C@H](C(=O)N[C@H](C(=O)N[C@@H](Cc1ccccc1)C(=O)N[C@@H](CC(N)=O)C(=O)N[C@@H](CCCNC(=N)N)C(=O)O)C(C)C)C(C)C)[C@@H](C)CC	refers to: MCP-1	BALB/c mice, CLP-induced sepsis, serum and lung	intraperitoneal, 5 mg/kg, 12 h post-surgery	baseline: vehicle	cytokine level	decreased
O=C(NCCCCc1ccccc1)n1c(=O)oc2cc(-c3ccc(F)cc3)ccc21	–	mouse, lung	intraperitoneal, 10 mg/kg, 3 h	–	lung sphingosine level	decreased
CCOP(=O)(CC(=O)Nc1ccc(S(=O)(=O)N(CC(N)=O)c2ccc(N(CC(N)=O)S(=O)(=O)c3ccc(OC)cc3)c3ccccc23)cc1)OCC	novel object recognition	APP/PS1 mice	intragastric, 40 mg/kg, 60 days, lentivirus intracerebroventricular	baseline: untreated APP/PS1	preference index	increased

SMILES	assay	test system	conditions	how to read	measurement	result
CC1=C(C2=C(C)C(=O)c3c(cc(O)c(O)c3Cc3ccccc3)C2=O)C(=O)c2cc(O)c(O)c(Cc3ccccc3)c2C1=O (racemic)	–	B6 Bcl-2-transgenic mouse	intraperitoneal, 5 µmol/kg, maximal reduction	baseline: control	spleen weight reduction	45 ± 7%
CC1CCCN(CCCNC(=O)C2=Cc3sc4c(c3CS2)CCCC4)C1 (stereo not drawn)	immunohistochemistry	HCT-116-GFP xenograft, NCr nude mice, tumour	intratumoral, 3 mg/kg	–	cleaved caspase-3 level	increased
CC1OC(OC2C(c3c(O)cc(O)c4c(=O)cc(-c5ccc(O)cc5)oc34)OC(CO)C(O)C2O)C(O)C(O)C1O (stereo not drawn)	–	–	–	–	FRAP, TEAC	278 ± 13.3 µM TE/mM
Cc1cc(O)c(C=O)c2c1C(=O)Oc1c(CO)c(O)c3c(c1O2)C(O)OC3=O (stereo not drawn)	–	streptozotocin-diabetic male albino rats, serum	dose not given, 9 weeks	baseline: diabetic control	malondialdehyde level	decreased
CC[C@H](C)[C@H](NC(=O)[C@H](Cc1ccccc1)NC(=O)[C@H](CCC(=O)O)NC(=O)[C@H](CCCCN)NC(=O)[C@H](C)NC(=O)[C@H](C)NC(=O)[C@H](CCC(N)=O)NC(=O)CNC(=O)[C@H](CCC(=O)O)NC(=O)[C@H](CC(C)C)NC(=O)[C@H](Cc1ccc(O)cc1)NC(=O)[C@H](CO)NC(=O)[C@H](CO)NC(=O)[C@@H](NC(=O)[C@H](CC(=O)O)NC(=O)[C@H](CO)NC(=O)[C@@H](NC(=O)[C@H](Cc1ccccc1)NC(=O)[C@@H](NC(=O)CNC(=O)[C@H](CCC(=O)O)NC(=O)[C@H](C)NC(=O)[C@@H](N)Cc1c[nH]cn1)[C@@H](C)O)[C@@H](C)O)C(C)C)C(=O)N[C@@H](C)C(=O)N[C@@H](Cc1c[nH]c2ccccc12)C(=O)N[C@@H](CC(C)C)C(=O)N[C@H](C(=O)N[C@@H](CCCCN)C(=O)NCC(=O)N[C@@H](CCCNC(=N)N)C(N)=O)C(C)C	agonist	mouse pancreatic islets	90 nM, 45 min, with: 16 mM glucose	baseline: high glucose alone	insulin secretion	~2 fold
C[C@H](NC(=O)COC(=O)[C@H](C)NC(=O)CO)C(=O)O	–	water	pH 5, 25 °C	–	depolymerization rate constant	0.016 h⁻¹
Cc1cc2c(NC(=O)N[C@@H]3CC(C)(C)Oc4c(OC(F)(F)F)cccc43)cccc2cn1	–	rat osteoarthritis pain model, plasma	–	–	efficacious plasma concentration	0.5 µg/mL
NCCCC[C@H](N)C(=O)N1CCC[C@H]1C(=O)NCC(=O)NCC(=O)O	diketopiperazine formation, Arrhenius plot, ESI-MS	1-propanol	70, 80, 90 °C, 0.5% acetic acid	–	ΔG‡ at 298.15 K	23.4 ± 6.21 kcal/mol
CC(C)(CCCC/C=C/CCCCCC(C)(C)C(=O)O)C(=O)O	–	rhesus monkey, spontaneous hyperlipidemia	20 mg/kg, 2 weeks	baseline: baseline	reduction in plasma LDL-C	20.1%
COc1ccc(C2CC(c3ccc(C)cc3)=Nc3ccccc3S2)cc1 (stereo not drawn)	–	Wistar rat, STZ-induced diabetes	oral, 10 mg/kg once daily, day 21	–	blood glucose	148 ± 5.01 mg/dL
COc1cccc(OCCN2CCC[C@H](CN3CCc4cc(OC)c(OC)cc4CC3=O)C2)c1	–	VTA dopamine neurons, stress-naive male mice	intraperitoneal, 1 mg/kg	baseline: baseline	firing rate	no effect
CC[C@H](C)[C@H](NC(=O)[C@H](CCCNC(=N)N)NC(=O)[C@@H]1CCCN1C(=O)[C@@H](NC(=O)[C@H](CCCNC(=N)N)NC(=O)[C@H](Cc1ccccc1)NC(=O)[C@H](CC(=O)O)NC(=O)[C@@H]1CCCN1C(=O)[C@@H]1CCCN1C(=O)[C@H](CO)NC(=O)[C@H](Cc1c[nH]c2ccccc12)NC(=O)[C@@H]1CCCN1C(=O)[C@@H]1CCCN1C(=O)[C@H](CC(C)C)NC(=O)[C@H](Cc1c[nH]c2ccccc12)NC(=O)[C@@H]1CCCN1C(=O)CNC(=O)[C@@H]1CCCN1C(=O)[C@H](Cc1c[nH]c2ccccc12)NC(=O)[C@H](CC(N)=O)NC(=O)[C@@H]1CCCN1C(=O)[C@@H]1CCCN1C(=O)[C@H](Cc1c[nH]c2ccccc12)NC(=O)[C@H](Cc1ccccc1)NC(=O)[C@@H]1CCCN1C(=O)[C@@H](NC(=O)[C@H](CCCNC(=N)N)NC(=O)[C@@H](N)CCCNC(=N)N)[C@@H](C)CC)[C@@H](C)CC)C(=O)N[C@@H](CC(C)C)C(=O)N[C@@H](CCCNC(=N)N)C(=O)N[C@@H](CCCCN)C(=O)N[C@@H](CCCNC(=N)N)C(=O)O	protein synthesis, luciferase reporter	E. coli coupled transcription-translation lysate	100 µM	–	inhibition	70%
Cc1cc(N)c2ccccc2[n+]1CCCCCCCCCCCCCC[n+]1c(C)cc(N)c2ccccc21	–	NOD/SCID mice, SK-N-AS xenograft	2.5 mg/kg	baseline: vehicle	tumour weight	no effect
CC(=O)N[C@@H](CC(N)=O)C(=O)NCC(=O)N[C@@H](CCCNC(=N)N)C(=O)N[C@@H](C)C(N)=O	1H NMR	sodium phosphate buffer 50 mM	pH 7.4, 37 °C	–	rate constant succinimide to β-Asp	1.29 h⁻¹
CC1OC(Oc2c(-c3ccc(O)cc3)oc3cc(O)cc(O)c3c2=O)C(OC(=O)C=Cc2ccc(O)cc2)C(O)C1OC(=O)C=Cc1ccc(O)cc1 (stereo not drawn)	flow cytometry	mouse C57BL/6, orthotopic Hepa1-6, tumour	dose not given	–	decrease of macrophages	43%
C[C@@H](NC(=O)[C@@H](Cc1ccccc1)NC(=O)[C@@H](Cc1c[nH]cn1)NC(=O)[C@@H](Cc1ccc(O)cc1)NC(=O)[C@@H](CCC(=O)O)NC(=O)[C@@H](CO)NC(=O)[C@H](N)CCC(N)=O)C(=O)O	–	rabbit, AT1R autoantibody-immunised hypertension	iv, 1 mg/kg, 6 weeks immunisation	–	heart rate	140 ± 8 bpm
Cc1cc2c(cc1C1(c3ncc(C(=O)O)cn3)CC1)C(C)(C)CCC2(C)C	RNA sequencing, refers to: Cga mRNA	rat, brain	dose not given, 24 h, single dose	baseline: vehicle	log2 fold change	4.22
CC(C)c1cnc(-c2cc(Cl)ccc2F)cc1Nc1ccncc1C(=O)NC(CO)CO	SMAD2/3 phosphorylation, flow cytometry	human patients, peripheral monocytes	dose not given, with enzalutamide	–	inhibition	> 50%

Repeated from above:
SMILES	assay	test system	conditions	how to read	measurement	result
C=C(c1ncc(C(=O)O)cn1)c1cc2c(cc1C)C(C)(C)CCC2(C)C	RNA sequencing, refers to: Cyp26a1 mRNA	rat, brain	dose not given, 24 h, single dose	baseline: vehicle	log2 fold change	-0.088
CCCCCCCCCCCCCCCC(=O)N[C@@H](CCCCN)C(=O)N[C@@H](CCCCN)C(=O)N[C@@H](CO)C(=O)N[C@@H](CCCNC(=N)N)C(=O)N[C@@H](C)C(=O)N[C@@H](CC(C)C)C(=O)N[C@@H](Cc1ccccc1)C(N)=O	–	guinea pig	intravenous infusion, above 0.05 mg/kg, 10 min infusion, maximum 60 min	–	mean occlusion time	40 min
N=C(N)NCCC[C@H](N)C(=O)N1CCC[C@H]1C(=O)NCC(=O)NCC(=O)O	diketopiperazine formation, Arrhenius plot, ESI-MS	1-propanol	70, 80, 90 °C, 0.5% acetic acid	–	ΔG‡ at 298.15 K	23.2 ± 1.91 kcal/mol
CNc1oc(-c2cccc3ccccc23)nc1C#N	–	NOD mice, prediabetic	ip, 24 mg/kg daily, 2 weeks	–	beta-cell mass	no effect
COc1ccc2c(c1)c(CC(=O)OCOC(C)=O)c(C)n2C(=O)c1ccc(Cl)cc1	hot plate test	BALB/c mice	50 mg/kg, 0 min	–	latency of nociceptive response	9.02 ± 0.44 s
